# Assay results pooled from the literature.
# Every numbered part comes from another study and shows a few of its results, in no order.

# Series 1 — technique: protein binding microarray; molecule type: double-stranded DNA, one strand shown; medium: in vitro; concentration: not given; baseline: not given; direction: higher = stronger binding
# Target: Histone acetyltransferase KAT6A, winged helix 2, GST fusion (KAT6A, Homo sapiens, UniProt Q92794, residues 85-181)
# Setting: 8-mer, flanks averaged, mean of 2 arrays, mostly near background
# Residues (chain): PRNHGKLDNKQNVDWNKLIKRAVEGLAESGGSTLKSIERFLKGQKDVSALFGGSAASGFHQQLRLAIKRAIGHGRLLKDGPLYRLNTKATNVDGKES
Strand,E-score
GCCCACGA,0.0353
AACGCGGT,0.0924
AACCCACT,0.254

# Series 2 — technique: competition protein-binding microarray; molecule type: double-stranded DNA, one strand shown; medium: in vitro; concentration: 2 µM; added: Pho4 competitor, 0.05 µM; direction: higher = stronger binding
# Target: Centromere-binding protein 1, full length, His-tagged (CBF1, Saccharomyces cerevisiae, UniProt P17106, residues 1-351)
# Sequence of UniProt P17106 (whole entry, looked up): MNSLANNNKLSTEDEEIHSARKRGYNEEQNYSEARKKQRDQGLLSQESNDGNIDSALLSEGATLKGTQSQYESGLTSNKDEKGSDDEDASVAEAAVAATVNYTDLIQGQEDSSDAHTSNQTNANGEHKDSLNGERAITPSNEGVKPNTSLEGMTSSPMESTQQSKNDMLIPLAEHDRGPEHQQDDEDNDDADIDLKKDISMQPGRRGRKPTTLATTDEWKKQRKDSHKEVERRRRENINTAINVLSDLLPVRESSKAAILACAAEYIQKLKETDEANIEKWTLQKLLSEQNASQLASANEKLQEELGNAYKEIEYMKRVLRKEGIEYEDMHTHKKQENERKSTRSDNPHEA
# Setting: whole 60-bp probe, lowest competitor level
Strand,fluorescence intensity
TGCGCAACAACTTGTCACACCACTTTATGTCTAGAAGTCTTGATTCGCTTGACGCTGCTG,131 a.u.
CTTCTGTAAATTTCGCACGTGTTTTGACGCGCCCCGGTCTTGATTCGCTTGACGCTGCTG,1180 a.u.
CATACCCAACCTTGCCTTGTGGGTGAAGATATTTGTGTCTTGATTCGCTTGACGCTGCTG,79.4 a.u.

# Other studies, line by line
# F2 mature alpha-thrombin: Prothrombin, mature alpha-thrombin (F2, Homo sapiens, UniProt P00734)
Substance,target,assay,test system,setting,scale,quantity,result
GGTTGGTGTGGTTGG (2'F-ANA at 1 2 3 7 9 11 12 13),F2 mature alpha-thrombin,"aptamer microarray, sandwich","DNA with 2'F-ANA, in vitro","200 nM, whole 15-mer aptamer, many near background, added: Cy3 exosite-II aptamer, 400 nM",higher = stronger binding,mean fluorescence intensity,296 a.u.
"PhoQ, residues 284 288 289 292 302 303 SLKLQV","PhoP, residues 12 14 15 18 19 DLLYY (Escherichia coli, UniProt P23836)","Sort-seq, measured: YFP reporter",E. coli,"PhoQ-PhoP variant library, added: 10 µM Mg2+","baseline: high Mg2+ state, higher = stronger signaling",fold induction,1.18
GGTTGGTGTGGTTGG (2'F-ANA at 1 2 5 11 13 14 15),F2 mature alpha-thrombin,"aptamer microarray, sandwich","DNA with 2'F-ANA, in vitro","200 nM, whole 15-mer aptamer, many near background, added: Cy3 exosite-II aptamer, 400 nM",higher = stronger binding,mean fluorescence intensity,46.6 a.u.

# A few entries again (series 2):
Strand,fluorescence intensity
CATACCCAACCTTGCCTTGTGGGTGAAGATATTTGTGTCTTGATTCGCTTGACGCTGCTG,79.4 a.u.
